Assay results pooled from the literature.
Protocols differ between the studies behind these lines. ± gives the spread as reported.

The ΔTm of `C[n+]1cc(/C=N/NC(=O)N/N=C/c2cc3ccccc3[n+](C)c2)cc2ccccc21` is reported as 6.3 ± 1.3 °C (22CTA telomeric G4-DNA antiparallel; FRET melting; 1 µM, K10 buffer, DNA 0.2 µM).
With `COc1ccc(NC(=O)COc2cccc(OCC(C)C)c2)cc1` the MIC was 2 µg/mL (Lodderomyces parapsilosis; microbial growth, broth dilution; ATCC22019).
`c1cc(C2CCCCC2)ccc1-c1ccc(N2CCCC2)nc1` has a hepatic clearance of 43 mL/min/kg (hepatocyte stability; cryopreserved mouse hepatocytes; 1 µM).
For `CO[C@H]1/C=C/O[C@@]2(C)Oc3c(C)c(O)c4c(c3C2=O)C2=NC3(CCN(CC(C)C)CC3)NC2=C(NC(=O)/C(C)=C\C=C\[C@H](C)[C@H](O)[C@@H](C)[C@@H](O)[C@@H](C)[C@H](OC(=O)c2cccnc2)[C@@H]1C)C4=O`, the MIC was 0.033 µM (Mycobacteroides abscessus subsp. abscessus; K21 clinical isolate; 90% growth inhibition).
With `CC1(C)[C@H](NC(=O)/C(=N\OCc2c(Cl)cccc2Cl)c2csc(N)n2)C(=O)N1OS(=O)(=O)O` the MIC was 2 µg/mL (Enterobacter aerogenes; agar dilution; ATCC 13048, susceptible).
For `C[C@@H]1C(=O)O[C@@H](C)/C=C/C=C\[C@@H](C)[C@@H]2C=C[C@@H]3C[C@@]4(C)O[C@H]4[C@@H](C)[C@H]3[C@@H]2C(=O)C(Cl)(Cl)C1=O`, the MIC was 0.05 µg/mL (Staphylococcus aureus; MRSA clinical isolate; resistant: OXA,CLI,ERY,MXF).
With `CC[C@H](C)[C@H](NC(=O)[C@H](CCC(N)=O)NC(=O)[C@H](Cc1ccccc1)NC(=O)[C@H](CC(N)=O)NC(=O)[C@H](CCCCN)NC(=O)[C@H](CC(C)C)NC(=O)[C@H](CCCNC(=N)N)NC(=O)[C@H](CCCCN)NC(=O)[C@H](CCCCN)NC(=O)[C@@H](NC(=O)[C@H](CO)NC(=O)[C@H](CCCCN)NC(=O)CNC(=O)[C@H](CC(C)C)NC(=O)[C@H](CCCCN)NC(=O)[C@H](CCCCN)NC(=O)[C@H](CC(C)C)NC(=O)[C@H](CCCCN)NC(=O)[C@H](CCCCN)NC(=O)[C@H](CCCNC(=N)N)NC(=O)[C@H](CC(C)C)NC(=O)CNC(=O)[C@@H](N)CCCNC(=N)N)[C@@H](C)CC)C(=O)NCC(=O)N[C@@H](Cc1ccccc1)C(=O)N[C@@H](CO)C(=O)N[C@H](C(=O)N1CCC[C@H]1C(=O)N[C@@H](Cc1ccccc1)C(=O)N[C@@H](C)C(=O)NCC(=O)O)C(C)C` the MIC was 4 µg/mL (Bordetella bronchiseptica; broth microdilution; ATCC 10580; 16 h, 37 °C, cation-adjusted Mueller-Hinton broth).
With `Cc1c(CN(C)C(=O)/C=C/c2cnc3c(c2)CC(N)C(=O)N3)oc2ccccc12` (centres unmarked) the MIC was 16 µg/mL (Acinetobacter baumannii; broth microdilution; AR-0078).
For `CC1C=CC=CC(C)C2C=CC3CC(C)(O)C(Cl)C(C)C3C2C(=O)C(Cl)(Cl)C(=O)C(C)C(=O)O1` (centres unmarked), the MIC was 0.1 µg/mL (Staphylococcus aureus; MSSA clinical isolate; resistant PEN/CLI/SXT/TET).
With `COc1cccc(OC)c1C(=O)N[C@@H]1C(=O)N2[C@@H]1SC(C)(C)[C@@H]2C(=O)O` the MIC was 2 µM (Listeria monocytogenes; 1.108, glucose peptone yeast broth; 18 to 20 h, 37 °C).
`C=C[C@]1(C)C[C@@H](OC(=O)CSc2ccc(NC(=O)c3ccco3)cc2)[C@]2(C)[C@H](C)CC[C@]3(CCC(=O)[C@H]32)[C@@H](C)[C@@H]1O` gave an MIC of 0.00195 µg/mL (Mycoplasma gallisepticum; chicken lung isolates; 10 mg/kg to chickens).
`CC1(C)[C@H](NC(=O)/C(=N\OC2(C(=O)O)CCCCC2)c2csc(N)n2)C(=O)N1OS(=O)(=O)O` has an MIC of 4 µg/mL (Enterobacter aerogenes; agar dilution; ATCC 13048, susceptible).
The hepatic clearance of `CS(=O)(=O)c1ccc(-c2ccc([C@H]3[C@@H](F)[C@@H](F)C[C@@H](F)[C@H]3F)cc2)cn1` is reported as 6.2 mL/min/kg (hepatocyte stability; cryopreserved human hepatocytes; 1 µM).
`CC1(C)[C@H](NC(=O)/C(=N\OCc2c(Cl)cccc2Cl)c2nsc(N)n2)C(=O)N1OS(=O)(=O)O` gave an MIC of 4 µg/mL (Enterobacter aerogenes; agar dilution; ATCC 13048, susceptible).
`C=CC(=O)N1[C@H](c2ccc3c(c2)OCO3)c2[nH]c3ccccc3c2C[C@@H]1C(=O)N1CCN(C)CC1` gave a relative co-enrichment of 91% (human cyclin E1 N112C-3xFLAG:CDK2; co-IP with TMT proteomics, item: DDX3X; concentration not given, O00571; reference: wild type DMSO).
The MIC of `CC1(C)[C@H](NC(=O)/C(=N\OCC(=O)N2CCC[C@@H]2C(=O)O)c2nsc(N)n2)C(=O)N1OS(=O)(=O)O` is reported as 1 µg/mL (Enterobacter aerogenes; agar dilution; ATCC 13048, susceptible).
For `CC[C@H](C)[C@H](NC(=O)[C@H](CCCNC(=N)N)NC(=O)[C@H](CC(=O)O)NC(=O)[C@H](CCCNC(=N)N)NC(=O)[C@H](CC(C)C)NC(=O)[C@H](CC(N)=O)NC(=O)[C@H](CCCNC(=N)N)NC(=O)[C@@H](N)Cc1ccccc1)C(=O)N[C@@H](CCCCN)C(=O)N[C@@H](CC(N)=O)C(=O)N[C@@H](CCCCN)C(=O)N[C@@H](Cc1ccccc1)C(=O)N[C@@H](CCC(=O)O)C(=O)N[C@@H](CC(N)=O)C(=O)N[C@@H](C)C(=O)N[C@@H](CC(C)C)C(=O)N[C@@H](CCCCN)C(=O)N[C@@H](CC(N)=O)C(=O)N[C@H](C(=O)N[C@H](C(=O)N[C@@H](CC(N)=O)C(=O)N[C@@H](CCCCN)C(=O)N[C@@H](CC(C)C)C(=O)N[C@@H](Cc1ccccc1)C(=O)N1CCC[C@H]1C(=O)O)[C@@H](C)CC)C(C)C`, the MIC was 64 µg/mL (Bordetella bronchiseptica; broth microdilution; ATCC 10580; 16 h, 37 °C, cation-adjusted Mueller-Hinton broth).

For quick reference, copied from above:
`CC1(C)[C@H](NC(=O)/C(=N\OC2(C(=O)O)CCCCC2)c2csc(N)n2)C(=O)N1OS(=O)(=O)O` has an MIC of 4 µg/mL (Enterobacter aerogenes; agar dilution; ATCC 13048, susceptible).
